# Assay results gathered from unrelated publications.
# Lines come from different studies, so protocols differ. ± gives the spread as reported.
# Polyprotein P1234 nsP2: Polyprotein P1234, nsP2 (Chikungunya virus, UniProt Q8JUX6)
# Chain of UniProt Q8JUX6 (whole entry, looked up): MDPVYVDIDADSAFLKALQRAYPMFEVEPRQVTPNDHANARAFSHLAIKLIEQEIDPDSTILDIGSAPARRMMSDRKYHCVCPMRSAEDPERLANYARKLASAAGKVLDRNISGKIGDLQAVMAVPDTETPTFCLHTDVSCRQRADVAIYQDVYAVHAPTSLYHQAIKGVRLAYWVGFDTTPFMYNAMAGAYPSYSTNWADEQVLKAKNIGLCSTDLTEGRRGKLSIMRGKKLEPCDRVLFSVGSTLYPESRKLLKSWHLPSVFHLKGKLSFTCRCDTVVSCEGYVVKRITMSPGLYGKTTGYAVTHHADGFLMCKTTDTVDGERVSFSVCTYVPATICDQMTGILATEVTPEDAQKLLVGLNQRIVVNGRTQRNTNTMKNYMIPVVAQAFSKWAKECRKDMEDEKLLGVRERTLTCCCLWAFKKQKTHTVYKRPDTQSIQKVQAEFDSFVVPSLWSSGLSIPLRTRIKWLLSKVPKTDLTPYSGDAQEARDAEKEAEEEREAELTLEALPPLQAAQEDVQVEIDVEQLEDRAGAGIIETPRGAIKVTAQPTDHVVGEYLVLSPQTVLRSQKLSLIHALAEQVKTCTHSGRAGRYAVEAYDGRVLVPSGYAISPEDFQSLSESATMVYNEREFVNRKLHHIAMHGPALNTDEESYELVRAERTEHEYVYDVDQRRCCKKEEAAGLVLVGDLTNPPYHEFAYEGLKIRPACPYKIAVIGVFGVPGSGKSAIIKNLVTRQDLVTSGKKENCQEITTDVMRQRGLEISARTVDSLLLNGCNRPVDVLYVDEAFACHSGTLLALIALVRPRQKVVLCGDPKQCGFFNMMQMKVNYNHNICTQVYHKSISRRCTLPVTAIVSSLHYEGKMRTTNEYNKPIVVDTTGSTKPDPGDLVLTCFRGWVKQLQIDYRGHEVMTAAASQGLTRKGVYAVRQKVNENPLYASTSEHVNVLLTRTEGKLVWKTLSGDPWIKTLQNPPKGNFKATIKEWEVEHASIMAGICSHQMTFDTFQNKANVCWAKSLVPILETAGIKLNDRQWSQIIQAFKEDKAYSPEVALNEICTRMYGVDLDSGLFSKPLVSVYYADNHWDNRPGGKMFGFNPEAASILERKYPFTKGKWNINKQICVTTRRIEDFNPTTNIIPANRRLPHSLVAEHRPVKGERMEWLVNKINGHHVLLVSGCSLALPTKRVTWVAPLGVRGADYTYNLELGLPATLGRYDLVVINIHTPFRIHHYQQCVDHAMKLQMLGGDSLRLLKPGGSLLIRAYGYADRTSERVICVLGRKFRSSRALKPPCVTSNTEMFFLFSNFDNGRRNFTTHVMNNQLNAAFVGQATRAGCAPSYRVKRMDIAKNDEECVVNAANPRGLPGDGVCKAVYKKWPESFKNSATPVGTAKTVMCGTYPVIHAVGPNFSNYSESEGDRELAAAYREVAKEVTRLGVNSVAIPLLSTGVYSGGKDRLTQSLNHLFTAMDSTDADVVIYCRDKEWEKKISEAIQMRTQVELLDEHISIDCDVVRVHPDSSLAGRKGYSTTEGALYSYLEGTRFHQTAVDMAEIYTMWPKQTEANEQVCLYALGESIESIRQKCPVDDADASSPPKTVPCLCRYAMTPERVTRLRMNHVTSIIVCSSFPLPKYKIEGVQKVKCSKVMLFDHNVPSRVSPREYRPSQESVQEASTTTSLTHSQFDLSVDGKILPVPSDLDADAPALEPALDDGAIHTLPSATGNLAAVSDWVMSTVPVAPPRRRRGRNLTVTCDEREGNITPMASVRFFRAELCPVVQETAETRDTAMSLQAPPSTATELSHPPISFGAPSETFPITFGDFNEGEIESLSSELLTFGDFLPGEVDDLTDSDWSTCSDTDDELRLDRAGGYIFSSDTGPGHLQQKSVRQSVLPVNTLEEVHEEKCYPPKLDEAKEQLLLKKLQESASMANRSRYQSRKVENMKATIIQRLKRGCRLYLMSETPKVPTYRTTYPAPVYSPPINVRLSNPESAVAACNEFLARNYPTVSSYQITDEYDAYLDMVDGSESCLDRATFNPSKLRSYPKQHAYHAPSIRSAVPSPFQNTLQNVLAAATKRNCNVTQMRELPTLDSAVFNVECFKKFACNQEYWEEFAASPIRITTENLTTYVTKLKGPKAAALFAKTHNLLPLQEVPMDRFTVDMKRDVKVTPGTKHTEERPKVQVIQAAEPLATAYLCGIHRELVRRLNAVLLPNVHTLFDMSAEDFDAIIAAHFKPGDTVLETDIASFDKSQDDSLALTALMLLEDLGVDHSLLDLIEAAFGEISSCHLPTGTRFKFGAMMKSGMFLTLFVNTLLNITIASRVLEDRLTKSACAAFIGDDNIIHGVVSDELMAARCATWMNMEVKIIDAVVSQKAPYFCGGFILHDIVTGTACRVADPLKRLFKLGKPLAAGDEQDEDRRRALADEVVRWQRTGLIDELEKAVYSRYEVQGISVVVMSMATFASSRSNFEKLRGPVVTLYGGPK
# CHRNA1/CHRNG/CHRND: CHRNA1/CHRNG/CHRND (Homo sapiens, UniProt P02708+P07510+Q07001)
# Chain of UniProt Q07001 (whole entry, looked up): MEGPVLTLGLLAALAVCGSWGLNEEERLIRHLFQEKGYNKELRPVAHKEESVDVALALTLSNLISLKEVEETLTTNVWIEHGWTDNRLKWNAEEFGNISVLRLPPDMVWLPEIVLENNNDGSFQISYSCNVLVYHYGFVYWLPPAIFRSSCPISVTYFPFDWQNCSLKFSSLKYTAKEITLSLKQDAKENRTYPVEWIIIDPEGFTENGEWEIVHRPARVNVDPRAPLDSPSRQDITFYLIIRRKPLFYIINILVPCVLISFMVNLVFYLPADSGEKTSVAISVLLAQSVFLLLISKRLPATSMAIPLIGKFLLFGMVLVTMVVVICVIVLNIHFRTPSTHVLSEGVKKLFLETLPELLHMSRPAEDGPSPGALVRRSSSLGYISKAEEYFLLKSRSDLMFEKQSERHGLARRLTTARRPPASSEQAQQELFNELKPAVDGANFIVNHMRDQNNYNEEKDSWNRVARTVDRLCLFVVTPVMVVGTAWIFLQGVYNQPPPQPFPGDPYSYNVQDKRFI
# Chain of UniProt P07510 (whole entry, looked up): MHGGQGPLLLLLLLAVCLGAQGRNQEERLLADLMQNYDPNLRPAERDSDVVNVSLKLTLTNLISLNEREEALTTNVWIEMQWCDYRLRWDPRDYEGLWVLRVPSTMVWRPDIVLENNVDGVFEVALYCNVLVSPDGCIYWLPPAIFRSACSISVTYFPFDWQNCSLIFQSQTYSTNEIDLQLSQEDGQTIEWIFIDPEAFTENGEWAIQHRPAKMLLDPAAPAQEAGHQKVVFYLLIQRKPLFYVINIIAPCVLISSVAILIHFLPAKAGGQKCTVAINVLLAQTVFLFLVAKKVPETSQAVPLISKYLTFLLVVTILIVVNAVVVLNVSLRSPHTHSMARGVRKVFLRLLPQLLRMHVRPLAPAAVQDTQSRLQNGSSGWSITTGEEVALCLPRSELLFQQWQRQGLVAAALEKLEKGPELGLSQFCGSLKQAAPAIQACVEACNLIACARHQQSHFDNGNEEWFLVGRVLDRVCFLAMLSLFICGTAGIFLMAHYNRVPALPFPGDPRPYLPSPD
# Chain of UniProt P02708 (whole entry, looked up): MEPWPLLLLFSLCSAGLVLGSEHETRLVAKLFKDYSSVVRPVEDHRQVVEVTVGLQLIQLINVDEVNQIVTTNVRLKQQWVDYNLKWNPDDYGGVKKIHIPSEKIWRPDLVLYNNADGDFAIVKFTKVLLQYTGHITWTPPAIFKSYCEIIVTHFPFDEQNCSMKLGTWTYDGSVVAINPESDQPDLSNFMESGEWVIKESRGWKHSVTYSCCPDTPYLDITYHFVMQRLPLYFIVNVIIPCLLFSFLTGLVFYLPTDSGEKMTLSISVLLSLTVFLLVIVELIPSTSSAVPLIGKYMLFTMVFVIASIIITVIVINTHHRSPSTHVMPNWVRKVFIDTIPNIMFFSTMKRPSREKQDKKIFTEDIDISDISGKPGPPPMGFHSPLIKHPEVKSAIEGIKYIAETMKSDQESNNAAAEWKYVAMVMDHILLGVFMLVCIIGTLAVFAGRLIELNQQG
# Grin1: Glutamate receptor ionotropic, NMDA 1 (Grin1, Rattus norvegicus, UniProt P35439)
# Chain of UniProt P15917 (whole entry, looked up): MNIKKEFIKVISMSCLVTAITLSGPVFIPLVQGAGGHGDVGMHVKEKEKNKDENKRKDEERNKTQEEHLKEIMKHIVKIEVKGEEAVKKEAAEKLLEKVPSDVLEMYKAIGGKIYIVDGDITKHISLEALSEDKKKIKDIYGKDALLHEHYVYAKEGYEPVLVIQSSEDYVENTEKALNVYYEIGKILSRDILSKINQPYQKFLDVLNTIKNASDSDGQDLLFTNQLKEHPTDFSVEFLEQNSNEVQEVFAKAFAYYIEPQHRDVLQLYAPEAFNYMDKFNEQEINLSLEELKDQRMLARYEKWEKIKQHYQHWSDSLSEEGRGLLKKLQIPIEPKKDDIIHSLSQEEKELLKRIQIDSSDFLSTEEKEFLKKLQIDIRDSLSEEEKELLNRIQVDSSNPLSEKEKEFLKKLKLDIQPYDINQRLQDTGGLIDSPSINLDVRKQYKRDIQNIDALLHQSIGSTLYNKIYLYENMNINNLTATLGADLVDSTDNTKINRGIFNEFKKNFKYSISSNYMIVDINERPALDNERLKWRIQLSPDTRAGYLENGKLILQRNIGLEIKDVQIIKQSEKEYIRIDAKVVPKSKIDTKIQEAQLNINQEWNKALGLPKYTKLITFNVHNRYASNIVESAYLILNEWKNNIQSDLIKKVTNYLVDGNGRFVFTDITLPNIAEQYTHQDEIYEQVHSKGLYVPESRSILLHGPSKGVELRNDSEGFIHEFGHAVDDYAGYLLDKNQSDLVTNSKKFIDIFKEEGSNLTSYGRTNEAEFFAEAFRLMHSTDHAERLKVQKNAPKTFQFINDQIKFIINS
# Chain of UniProt P42494 (whole entry, looked up): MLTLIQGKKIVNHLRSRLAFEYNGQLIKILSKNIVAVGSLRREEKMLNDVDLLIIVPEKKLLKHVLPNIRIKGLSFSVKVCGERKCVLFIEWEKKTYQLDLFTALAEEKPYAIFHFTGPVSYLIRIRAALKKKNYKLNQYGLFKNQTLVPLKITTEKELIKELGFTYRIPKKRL
SMILES,target,test,test system,setting,inhibition
CS(=O)(=O)NCC1CCOC2(CCN(C(=O)C3(c4ccccc4)CCCCC3)CC2)C1 (stereo not drawn),Polyprotein P1234 nsP2,"ATPase activity, ADP-Glo",,200 µM,80%
Cc1[nH]nc2c1N=C(c1ccccc1Cl)c1cnc(N3CCOCC3)cc1N2,CHRNA1/CHRNG/CHRND,,,10 µM,9%
N#CC1=C(N)OC2=C(c3sc(N)c(C#N)c3CC2)C1c1ccccc1Cl (stereo not drawn),"OPG113, with D12 (Vaccinia virus, UniProt P04298)",,,50 µM,93.4 ± 6.75%
O=S(=O)(O)c1ccc(N=Nc2cc(Oc3ncc(Cl)cc3Cl)ccc2O)cc1,"Ba71V-97, DNA complex (African swine fever virus, UniProt P42494)",enzyme activity,,100 µM,> 50%
CN(C)CC(=O)Nc1ccc2[nH]c(=O)c3ccccc3c2c1,"Nucleoprotein (Severe acute respiratory syndrome coronavirus 2, UniProt P0DTC9)","nucleoprotein-RNA interaction, HTRF",,50 µM,no effect
O=c1c(OP(=O)(O)O)c(-c2ccc(OP(=O)(O)O)c(OP(=O)(O)O)c2)oc2cc(OP(=O)(O)O)cc(OP(=O)(O)O)c12,"Spike glycoprotein (Severe acute respiratory syndrome coronavirus 2, UniProt P0DTC2)",spike protein activity,SARS-CoV-2,concentration not given,inhibited
C[C@H](NCc1ccc(-c2ccc(C(F)(F)F)cc2)cc1)C(N)=O,"sodium channel site 2, rat","binding, radioligand binding",biochemical,"1 µM, added: [3H]batrachotoxinin 5.0 nM",38%
COCC(=O)N1CCc2cc(-c3csc(NC(=O)c4cc(OC)cc(OC)c4)n3)ccc21,CHRNA1/CHRNG/CHRND,,,10 µM,-3%
CS(=O)(=O)NCC1CCOC2(CCN(C(=O)Cc3ccccc3)CC2)C1 (stereo not drawn),Polyprotein P1234 nsP2,"ATPase activity, ADP-Glo",,200 µM,< 10%
CSCC[C@H](NC(=O)[C@H](CCN)NC(=O)[C@@H](NC(=O)[C@H](Cc1c[nH]c2ccccc12)NC(=O)[C@H](CCCNC(=N)N)NC(=O)[C@@H](N)CCNc1ccc([N+](=O)[O-])cc1[N+](=O)[O-])[C@@H](C)O)C(=O)N[C@@H](CC(C)C)C(N)=O,"Botulinum neurotoxin type B (Clostridium botulinum, UniProt P10844)","enzyme activity, inhibitor",,concentration not given,0%
CC[C@H](C)[C@H](NC(=O)[C@H](Cc1c[nH]cn1)NC(=O)[C@H](Cc1ccc(O)cc1)NC(=O)[C@H](CCCCN)NC(=O)[C@@H]1CSSC[C@@H]2NC(=O)[C@H](CCC(=O)O)NC(=O)[C@H](CC(=O)O)NC(=O)[C@H](C)NC(=O)CNC(=O)[C@H](Cc3ccc(O)cc3)NC(=O)[C@H](CCCCN)NC(=O)[C@@H]3CSSC[C@H](NC(=O)[C@H](C(C)C)NC(=O)[C@H](Cc4ccc(O)cc4)NC(=O)CNC(=O)[C@H](CCCCN)NC(=O)[C@H](CSSC[C@H](NC(=O)[C@@H](N)CO)C(=O)N[C@@H](CCCCN)C(=O)N[C@@H](C(C)C)C(=O)N4CCC[C@H]4C(=O)N[C@@H](Cc4ccccc4)C(=O)N[C@@H](CC(N)=O)C(=O)N[C@@H](CCC(=O)O)C(=O)N3)NC2=O)C(=O)N[C@@H](CO)C(=O)N[C@@H](CCCCN)C(=O)N[C@@H](CCCNC(=N)N)C(=O)N[C@@H](CC(=O)O)C(=O)NCC(=O)N[C@@H](Cc2c[nH]c3ccccc23)C(=O)N1)C(=O)N[C@@H](CC(N)=O)C(=O)O,"SCN9A (Homo sapiens, UniProt Q15858)","ion current, inhibitor, patch clamp",HEK293,3.3 µM,15.2%
COc1ccc(F)cc1S(=O)(=O)Nc1cnc2c(c1)C(=O)NCCO2,strychnine-sensitive glycine receptor,radioligand binding,,10 µM,18%
CCOC(=O)[C@](CC)(CCCSCCOCCOCCNC(=O)c1ccc(-c2c3ccc(=N)c(S(=O)(=O)O)c-3oc3c(S(=O)(=O)O)c(N)ccc23)c(C(=O)O)c1)NC(=O)c1ccc(C2CC2)c(Cc2ccc(F)cc2)n1,Grin1,"ligand displacement, radioligand",,10 µM,8%
CC(C)C[C@H](NC(=O)[C@@H](NC(=O)[C@@H](CCCNC(=N)N)NC(=O)[C@@H](CCCNC(=N)N)NC(=O)[C@@H](CCCNC(=N)N)NC(=O)[C@@H](CCCNC(=N)N)NC(=O)[C@@H](CCCNC(=N)N)NC(=O)[C@@H](CCCNC(=N)N)NC(=O)[C@@H](CCCNC(=N)N)NC(=O)[C@@H](CCCNC(=N)N)NC(=O)[C@H](N)CCCNC(=N)N)C(C)C)C(=O)N[C@@H](CCCNC(=N)N)C(=O)O,"Lethal factor (Bacillus anthracis, UniProt P15917)","enzyme activity, inhibitor",,0.02 µM,33%
O=C(O[C@@H]1Cc2c(O)cc(O)cc2O[C@@H]1c1cc(O)c(O)c(O)c1)c1cc(O)c(O)c(O)c1,"Replicase polyprotein 1a, main protease (Severe acute respiratory syndrome-related coronavirus, UniProt P0C6U8)",3CL protease activity,,concentration not given,no inhibition
CC(C)(C(=O)N1CCC2(CC1)CC(CNS(C)(=O)=O)CCO2)c1ccccc1 (stereo not drawn),Polyprotein P1234 nsP2,"ATPase activity, ADP-Glo",,200 µM,45%
CC[C@H](C)[C@H](NC(=O)[C@H](CCCCN)NC(=O)[C@H](CCCCN)NC(=O)[C@H](CC(C)C)NC(=O)[C@H](Cc1c[nH]c2ccccc12)NC(=O)CN)C(=O)NCC(=O)N[C@@H](CCCCN)C(=O)N[C@@H](CCCCN)C(=O)N[C@H](C(=O)N[C@@H](CCC(=O)O)C(=O)N[C@@H](CCCNC(=N)N)C(=O)N[C@H](C(=O)NCC(=O)N[C@@H](CCC(N)=O)C(=O)N[C@@H](Cc1c[nH]cn1)C(=O)N[C@H](C(=O)N[C@@H](CCCNC(=N)N)C(=O)N[C@@H](CC(=O)O)C(=O)N[C@@H](C)C(=O)N[C@H](C(=O)N[C@H](C(=O)N[C@@H](CCC(N)=O)C(=O)N[C@H](C(=O)N[C@H](C(=O)NCC(=O)N[C@H](C(=O)N[C@@H](C)C(=O)N[C@@H](CCC(N)=O)C(=O)N[C@@H](CCC(N)=O)C(=O)N[C@@H](C)C(=O)N[C@@H](C)C(=O)N[C@@H](CC(N)=O)C(=O)N[C@H](C(=O)N[C@@H](C)C(=O)N[C@@H](C)C(=O)N[C@H](C(=O)N[C@@H](CC(C)C)C(=O)N[C@@H](CCCCN)C(N)=O)[C@@H](C)O)C(C)C)C(C)C)[C@@H](C)CC)[C@@H](C)O)[C@@H](C)CC)[C@@H](C)O)[C@@H](C)O)C(C)C)[C@@H](C)CC,"CHRM3 (Homo sapiens, UniProt P20309)","antagonist, CEREP off-target panel",,10 µM,31%
O=C1c2sc(-c3ccc(N4CCC(CO)CC4)nc3F)nc2CCN1c1cccnc1,Grin1,"ligand displacement, radioligand",,1 µM,-4%

# Excerpt of the above:
SMILES,target,test,test system,setting,inhibition
Cc1[nH]nc2c1N=C(c1ccccc1Cl)c1cnc(N3CCOCC3)cc1N2,CHRNA1/CHRNG/CHRND,,,10 µM,9%
CC[C@H](C)[C@H](NC(=O)[C@H](Cc1c[nH]cn1)NC(=O)[C@H](Cc1ccc(O)cc1)NC(=O)[C@H](CCCCN)NC(=O)[C@@H]1CSSC[C@@H]2NC(=O)[C@H](CCC(=O)O)NC(=O)[C@H](CC(=O)O)NC(=O)[C@H](C)NC(=O)CNC(=O)[C@H](Cc3ccc(O)cc3)NC(=O)[C@H](CCCCN)NC(=O)[C@@H]3CSSC[C@H](NC(=O)[C@H](C(C)C)NC(=O)[C@H](Cc4ccc(O)cc4)NC(=O)CNC(=O)[C@H](CCCCN)NC(=O)[C@H](CSSC[C@H](NC(=O)[C@@H](N)CO)C(=O)N[C@@H](CCCCN)C(=O)N[C@@H](C(C)C)C(=O)N4CCC[C@H]4C(=O)N[C@@H](Cc4ccccc4)C(=O)N[C@@H](CC(N)=O)C(=O)N[C@@H](CCC(=O)O)C(=O)N3)NC2=O)C(=O)N[C@@H](CO)C(=O)N[C@@H](CCCCN)C(=O)N[C@@H](CCCNC(=N)N)C(=O)N[C@@H](CC(=O)O)C(=O)NCC(=O)N[C@@H](Cc2c[nH]c3ccccc23)C(=O)N1)C(=O)N[C@@H](CC(N)=O)C(=O)O,"SCN9A (Homo sapiens, UniProt Q15858)","ion current, inhibitor, patch clamp",HEK293,3.3 µM,15.2%
